Measured values collected from several papers.
Each numbered part is a random draw from the data of one study; scales do not carry over between parts. Substitutions count along the parent as printed.

Sample 1
Target: Interferon regulatory factor 3, full length, phosphomimetic (IRF3, Homo sapiens, UniProt Q14653, residues 1-427, S386D/S396D/S398D/S402D/T404D/S405D)
Chain of UniProt Q14653 (whole entry, unmodified, looked up): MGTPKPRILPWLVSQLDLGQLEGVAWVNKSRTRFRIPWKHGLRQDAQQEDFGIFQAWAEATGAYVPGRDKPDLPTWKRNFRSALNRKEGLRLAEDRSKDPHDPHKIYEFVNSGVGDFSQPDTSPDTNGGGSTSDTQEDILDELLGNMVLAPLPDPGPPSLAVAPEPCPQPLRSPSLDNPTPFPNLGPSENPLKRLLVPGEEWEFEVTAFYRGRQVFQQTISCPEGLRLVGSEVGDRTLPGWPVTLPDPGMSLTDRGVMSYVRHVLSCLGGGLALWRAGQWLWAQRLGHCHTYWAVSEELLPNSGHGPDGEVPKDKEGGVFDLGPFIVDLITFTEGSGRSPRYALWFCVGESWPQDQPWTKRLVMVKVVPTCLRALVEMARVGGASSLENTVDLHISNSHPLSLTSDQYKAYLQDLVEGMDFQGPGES
Method: protein-binding microarray
Molecule type: double-stranded DNA, one strand shown
Sample: in vitro
Tested at: 2540 nM top
Notes: 60-bp whole probe
Together with: salmon DNA 0.4 mg/ml
Relative to: random background probes
Direction: higher = stronger binding
Constant ends, left off below: GCCTAGCAC … GTCTTGATTCGCTTGACGCTGCTG
Oligonucleotide	fitted relative affinity [z-score]
TTCGAACTGAGTTTCGATTAGTGCTAG	2.83
TCAGCTCTGCAGCTCAGACTGTGCTAG	-0.309
GACGGTTCCCGTTTCGGGACGTGCTAG	4.7
TCCAGTCTGGGAGATGAAGCGGTGCTA	0.149
GACGGTTCCCTTTTACTGACGTGCTAG	5.91
TTAGGTTTCGACTTTCGGTTAGTGCTA	3.97
GACGAACTGGGGACTGAAGACGTGCTA	-0.449
TTAGGTTTCGGGTATCGGTAAGTGCTA	4.42
TCATTTTTTACTTCGGGACTGTGCTAG	1.23
CAGGTTTTGCTAAGTCAACTGGTGCTA	0.314
GACGAACTGAGTTTCGAGACGTGCTAG	1.22
TTAGATATCGGGTTTCAATTAGTGCTA	0.882
TTAGGTCTCCTAATCCTTTAGTGCTAG	1.94
TTACGTTTCGGTTTCGGTTAGTGCTAG	10.5
TTAGATTTCAGTCTCCATTAGTGCTAG	2.92
GGCACCCAAGCTCTTGTTTGGTGCTAG	-0.643

Sample 2
Target: ABI1, truncated, D143A, DHFR fusion (Arabidopsis thaliana)
Method: DHFR PCA, deep sequencing
Sample: yeast
Notes: methotrexate growth selection, single substitutions
Together with: (+)-ABA 17 µM
Relative to: wild-type fitted maximum
Direction: higher = stronger binding
Starting sequence: PYL1, truncated, DHFR fusion (Arabidopsis thaliana); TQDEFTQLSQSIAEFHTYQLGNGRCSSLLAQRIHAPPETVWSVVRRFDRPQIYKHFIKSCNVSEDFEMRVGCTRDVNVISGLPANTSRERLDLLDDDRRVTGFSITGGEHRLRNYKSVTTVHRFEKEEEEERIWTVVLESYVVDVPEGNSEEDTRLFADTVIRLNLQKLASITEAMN; partner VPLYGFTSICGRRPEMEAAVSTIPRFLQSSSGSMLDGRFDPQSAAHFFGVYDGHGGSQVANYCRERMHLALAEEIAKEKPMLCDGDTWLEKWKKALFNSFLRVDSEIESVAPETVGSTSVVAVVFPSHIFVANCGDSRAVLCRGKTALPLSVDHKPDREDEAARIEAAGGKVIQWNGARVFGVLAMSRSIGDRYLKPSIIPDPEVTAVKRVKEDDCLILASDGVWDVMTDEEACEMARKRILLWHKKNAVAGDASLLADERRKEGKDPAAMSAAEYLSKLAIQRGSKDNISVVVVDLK
Variant	relative binding score
S104L	4.97%
N149M	10.9%
E147A	81.3%
T86L	51.4%
D159H	-1.45%
L91I	-18.7%
C60W	1.77%
R69A	82.1%
F103T	-11%
S9Y	59.8%
L28Y	31.4%
L138P	-1.66%
E127A	83.1%

Sample 3
Target: UBE2V1 UBC core domain (UniProt Q13404)
Method: yeast two-hybrid
Sample: yeast
Notes: mostly zero background
Relative to: not given
Direction: higher = stronger interaction
B1: RNF111 RING domain (UniProt Q6ZNA4); chain EGTEEDTEEKCTICLSILEEGEDVRRLPCMHLFHQVCVDQWLITNKKCPICRVDIEAQLPSE
B2: TRIM43 RING domain (UniProt Q96BQ3); chain FSHAFQKELTCVICLNYLVDPVTICCGHSFCRPCLCLSWEEAQSPANCPACREPSPKMDFKT
B3: TRIM4 RING domain (UniProt Q9C037); chain EAEDIQEELTCPICLDYFQDPVSIECGHNFCRGCLHRNWAPGGGPFPCPECRHPSAPAALRP
B4: TRIML1 RING domain (UniProt Q8N9V2); chain LMENLREELTCFICLDYFSSPVTTECGHSFCLVCLLRSWEEHNTPLSCPECWRTLEGPHFQS
B5: TRIM24 RING domain (UniProt O15164); chain EAARLNLLDTCAVCHQNIQSRAPKLLPCLHSFCQRCLPAPQRYLMLPAPMLGSAETPPPVPAPGSPVSGSSPFATQVGVIRCPVCSQECAERHII
Construct (chain): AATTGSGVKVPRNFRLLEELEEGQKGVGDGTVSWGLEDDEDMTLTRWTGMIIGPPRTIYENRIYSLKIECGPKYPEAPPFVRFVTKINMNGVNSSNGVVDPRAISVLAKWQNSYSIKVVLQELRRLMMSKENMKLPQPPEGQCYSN
Sequence	lacZ reporter activity
B1 (RNF111 RING domain)	0
ASLPTSEEDLCPICYAHPISAVFQPCGHKSCKACINQHLMNNKDCFFCKTTIVSVEDWE (RNF123 RING domain (UniProt Q5XPI4))	0
GAAPGPEAAECLVCSELALLVLFSPCQHRTVCEECARRMKKCIRCQVVVSKKLRPD (MIB2 RING domain (UniProt Q96AX9))	0
MPIRALCTICSDFFDHSRDVAAIHCGHTFHLQCLIQWFETAPSRTCPQCRIQVGKRTIIN (TRAIP RING domain (UniProt Q9BWF2))	0
B2 (TRIM43 RING domain)	0
B3 (TRIM4 RING domain)	0
VEPSEENSKDCVVCQNGTVNWVLLPCRHTCLCDGCVKYFQQCPMCRQFVQESFALC (CGRRF1 RING domain (UniProt Q99675))	0
PAELEVQASECVVCLEREAQMIFLNCGHVCCCQQCCQPLRTCPLCRQDIAQRLRIY (LRSAM1 RING domain (UniProt Q6UWE0))	0
B4 (TRIML1 RING domain)	0
B5 (TRIM24 RING domain)	0

Sample 4
Target: RNA binding protein fox-1 homolog 2, RRM domain, GST-SBP tag (RBFOX2, Homo sapiens, UniProt O43251-10, residues 100-194)
Method: RNA Bind-n-Seq
Molecule type: RNA
Sample: in vitro
Tested at: 365 nM
Notes: natural RNA segment, single round, ends assumed
Relative to: no-protein control
Direction: higher = stronger binding
Constant ends, left off below: GGGAGUUCUACAGUCCGACGAUC … UGGAAUUCUCGGGUGCCAA
Construct (chain): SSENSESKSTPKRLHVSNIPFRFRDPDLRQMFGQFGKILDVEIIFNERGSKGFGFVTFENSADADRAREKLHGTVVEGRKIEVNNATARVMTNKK
Oligonucleotide	RBNS enrichment (R)
CUCACACCUGUAAUCCCAACAUUUUGGGAGCCCAAGGCGGCCGGACCACCUGAGGUCGGGAGUUCAAGACCAGCCUGACCAACAUGGAGAAACCCUGUCUCUACUAAAAA	0.317
UACUUGAGAACUACAGUUUCUGCUUAUCAUUUAUUCUUCCUUGUGGCACUUAAUAUUUUAAUUGUCUUAAGCUUUUUGAUGUAUAUAUCCUCUGGCCCCUUACAUGCUGC	1.54
GCCUCCCUCCCGCGGGAGGUUUCUCCUCUUUUUGAAAAUUCCGUCUGUGGGAUUUUUAGACAUUUUUCGACAUCAGGGUAUUUGUUCCACCUUGGCCAGGCCUCCUCGGA	0.472
GCAUCCACAUGGCAGCUCACAACCAUCUGGAACUCCAGUUCCAGAGAAUCCAAUGCCCUUCUGGCCUUUGUGGAAACUUUCAUAUGUAUGGUAUACAUGCAUACACUACA	0.317
UAGAGAGUUUGUGGGGAUCUCUUCUGAGUACCCCAGGACUUGGGAAAUAAUGCAAGAGUAUCCCUUUCAGUACAUAGGUAAGCUUGGCUAUGUUCAAUAUGGCAGAGCCA	1.35
UUUAGAAGAAUGCAUUCAAGGAUUCUUUUCCUUUCCUUCAGUGUCAUUAAUGUUAAAAGAGCAGCCACUGUUUUGUUGAAACAAACAGCUUAACUUCAGAAAUAAGAACU	0.241
UUGUCUUUCUUUUUUAUUUUUUAAGUAUUGGAAUAAGUCUAAUGAAAAAGAAAGUGCCUUAUUUUUCUUCAUGGUCAUUUAGUCAAGUGUCCUGUAAGAUCAGCUCCUCC	0.689
UUGGAAAACUAUAAAAAAUGCUUUGUUAAUGUGUGUAUUCCUAUGUAAAACACAUGGCUUCUUCUGUGUAUAUUUUUUAAAAUUAAAGACUUGCACAUUUAAAAAACUGU	0.794
ACUGAGCCAGGCAGGAAGGCAGCAGCCUUCAGCCUCUCUGGCCCACUCGGACAACUUCCCAAGGCCGCCUCCUGCUAGCAAGAACAGAGUCCACCCUCCUCUGGAUAUUG	0.218
GAGCUCUUCUGUCCAAAGAUGGCUGCGGGCUAAGCAAGGUCCUGCCCUGGGUGGAUACUUGAACCAGAGAUCCCGACCCUGCUGCUCCAUCUCAGGAGGCAGCCUUCCUG	0.286
GAAAGCCACUCUAUUUUGGUCUCUGUGACAUUUUAAAUGCGUGACAGAAGUGAGCAAAUAAAGUGAGGAAGAAAUCUAUAUAUGAGAUAAUAUAGAUUGUAUUGAAAUCU	0.385
CUUUUCUUUCAUUCAGAUGACCUUUUUCUGAAUCUGGGCACUGAAGGGAUGCAUAAAAUAAUGUUAAUGUUUUCAGUAAUGUCUUCAAGUAGAAGACUUUCUGUUGAACU	0.287

Sample 5
Target: CCNB2, cyclin fold, Cln2 fusion (human)
Method: yeast growth competition, sequencing
Sample: yeast
Notes: weak parent motif
Relative to: not given
Direction: higher = stronger binding
Starting sequence: E2F8 docking peptide (human); FVPQRKLEVSTED
Variant	normalised enrichment score
FVPQRKLEVSTAD [E12A]	-0.192
FVPQKKLELSTED [R5K V9L]	-0.0792
FVPARKLEVSTED [Q4A]	-0.763
FAPQRKLEVSTED [V2A]	-0.141
FVAQRKLEVSTED [P3A]	0.05
FVPQKKLEVSTED [R5K]	0.0275
FVPQRALEVSTED [K6A]	-0.293
AVPQRKLEVSTED [F1A]	-0.129

Sample 6
Target: ATF2, bZIP domain (human)
Method: DHFR protein complementation
Sample: yeast
Notes: single substitutions, most at no-binding floor
Relative to: wild-type JUN-FOS pair
Direction: higher = stronger binding
Starting sequence: JUN, bZIP domain (human); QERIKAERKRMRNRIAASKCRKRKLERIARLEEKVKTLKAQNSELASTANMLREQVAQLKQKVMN; partner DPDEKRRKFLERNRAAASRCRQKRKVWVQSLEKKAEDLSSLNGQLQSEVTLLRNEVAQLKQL
Variant	binding fitness [natural log]
K36E	-1.39
E32T	-1.36
A57K	-1.32
S43H	-1.2
L52A	-1.45
A29R	-1.31
R53M	-1.45
I28W	-1.49
V35Q	-1.54
L38Y	-1.45
A40N	-1.38
R30Y	-1.25
A49I	-1.18
S43C	-1.45
L31M	-1.54
S47R	-1.24
S47F	-1.38
S47A	-1.3
V35K	-1.49

Sample 7
Target: Histone acetyltransferase KAT6A, both winged helices, GST fusion (KAT6A, Homo sapiens, UniProt Q92794, residues 1-181)
Method: protein binding microarray
Molecule type: double-stranded DNA, one strand shown
Sample: in vitro
Tested at: not given
Notes: 8-mer, flanks averaged, mean of 2 arrays, mostly near background
Relative to: not given
Direction: higher = stronger binding
Construct (chain): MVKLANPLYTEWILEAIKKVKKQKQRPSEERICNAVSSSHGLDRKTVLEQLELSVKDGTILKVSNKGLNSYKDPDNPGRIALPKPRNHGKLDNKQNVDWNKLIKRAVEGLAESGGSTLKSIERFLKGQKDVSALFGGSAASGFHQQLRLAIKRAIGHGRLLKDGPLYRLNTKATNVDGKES
Oligonucleotide	E-score
ATTGCGAG	0.117
AAATGGCT	-0.139
CGGCTCCC	0.143
CAACTATA	-0.0312
GAACCTGA	-0.0857
CACTGGTA	-0.193
AAAGGACC	-0.0489
AGGTAGAA	-0.24
ATAAGTTA	-0.162
CTTAGGGC	-0.0538
CCGCAAAC	0.0992
GGTCTTTA	0.0665
AGCCCCAG	-0.141
GTCGTGCA	-0.157
AGCCCTAT	-0.153
CCCTAAAC	-0.0607
GAATTTCA	-0.151
AGGCACAA	-0.123
AGCGACAC	-0.0907
AACCTTCG	-0.0922
ATTGCGGG	0.232
CTTCTATC	-0.0654

A few entries again (sample 6):
Variant	binding fitness [natural log]
E32T	-1.36
A57K	-1.32
S43H	-1.2
L52A	-1.45
A29R	-1.31
R53M	-1.45
I28W	-1.49
V35Q	-1.54
